Measurements pooled from the literature.
Each numbered part is a random draw from the data of one study; scales do not carry over between parts. Values joined by “and” are separate records of one study, mostly repeats; a detail may differ. Substitutions count along the parent as printed.
Sequence of UniProt O75417 (whole entry, unmodified, looked up): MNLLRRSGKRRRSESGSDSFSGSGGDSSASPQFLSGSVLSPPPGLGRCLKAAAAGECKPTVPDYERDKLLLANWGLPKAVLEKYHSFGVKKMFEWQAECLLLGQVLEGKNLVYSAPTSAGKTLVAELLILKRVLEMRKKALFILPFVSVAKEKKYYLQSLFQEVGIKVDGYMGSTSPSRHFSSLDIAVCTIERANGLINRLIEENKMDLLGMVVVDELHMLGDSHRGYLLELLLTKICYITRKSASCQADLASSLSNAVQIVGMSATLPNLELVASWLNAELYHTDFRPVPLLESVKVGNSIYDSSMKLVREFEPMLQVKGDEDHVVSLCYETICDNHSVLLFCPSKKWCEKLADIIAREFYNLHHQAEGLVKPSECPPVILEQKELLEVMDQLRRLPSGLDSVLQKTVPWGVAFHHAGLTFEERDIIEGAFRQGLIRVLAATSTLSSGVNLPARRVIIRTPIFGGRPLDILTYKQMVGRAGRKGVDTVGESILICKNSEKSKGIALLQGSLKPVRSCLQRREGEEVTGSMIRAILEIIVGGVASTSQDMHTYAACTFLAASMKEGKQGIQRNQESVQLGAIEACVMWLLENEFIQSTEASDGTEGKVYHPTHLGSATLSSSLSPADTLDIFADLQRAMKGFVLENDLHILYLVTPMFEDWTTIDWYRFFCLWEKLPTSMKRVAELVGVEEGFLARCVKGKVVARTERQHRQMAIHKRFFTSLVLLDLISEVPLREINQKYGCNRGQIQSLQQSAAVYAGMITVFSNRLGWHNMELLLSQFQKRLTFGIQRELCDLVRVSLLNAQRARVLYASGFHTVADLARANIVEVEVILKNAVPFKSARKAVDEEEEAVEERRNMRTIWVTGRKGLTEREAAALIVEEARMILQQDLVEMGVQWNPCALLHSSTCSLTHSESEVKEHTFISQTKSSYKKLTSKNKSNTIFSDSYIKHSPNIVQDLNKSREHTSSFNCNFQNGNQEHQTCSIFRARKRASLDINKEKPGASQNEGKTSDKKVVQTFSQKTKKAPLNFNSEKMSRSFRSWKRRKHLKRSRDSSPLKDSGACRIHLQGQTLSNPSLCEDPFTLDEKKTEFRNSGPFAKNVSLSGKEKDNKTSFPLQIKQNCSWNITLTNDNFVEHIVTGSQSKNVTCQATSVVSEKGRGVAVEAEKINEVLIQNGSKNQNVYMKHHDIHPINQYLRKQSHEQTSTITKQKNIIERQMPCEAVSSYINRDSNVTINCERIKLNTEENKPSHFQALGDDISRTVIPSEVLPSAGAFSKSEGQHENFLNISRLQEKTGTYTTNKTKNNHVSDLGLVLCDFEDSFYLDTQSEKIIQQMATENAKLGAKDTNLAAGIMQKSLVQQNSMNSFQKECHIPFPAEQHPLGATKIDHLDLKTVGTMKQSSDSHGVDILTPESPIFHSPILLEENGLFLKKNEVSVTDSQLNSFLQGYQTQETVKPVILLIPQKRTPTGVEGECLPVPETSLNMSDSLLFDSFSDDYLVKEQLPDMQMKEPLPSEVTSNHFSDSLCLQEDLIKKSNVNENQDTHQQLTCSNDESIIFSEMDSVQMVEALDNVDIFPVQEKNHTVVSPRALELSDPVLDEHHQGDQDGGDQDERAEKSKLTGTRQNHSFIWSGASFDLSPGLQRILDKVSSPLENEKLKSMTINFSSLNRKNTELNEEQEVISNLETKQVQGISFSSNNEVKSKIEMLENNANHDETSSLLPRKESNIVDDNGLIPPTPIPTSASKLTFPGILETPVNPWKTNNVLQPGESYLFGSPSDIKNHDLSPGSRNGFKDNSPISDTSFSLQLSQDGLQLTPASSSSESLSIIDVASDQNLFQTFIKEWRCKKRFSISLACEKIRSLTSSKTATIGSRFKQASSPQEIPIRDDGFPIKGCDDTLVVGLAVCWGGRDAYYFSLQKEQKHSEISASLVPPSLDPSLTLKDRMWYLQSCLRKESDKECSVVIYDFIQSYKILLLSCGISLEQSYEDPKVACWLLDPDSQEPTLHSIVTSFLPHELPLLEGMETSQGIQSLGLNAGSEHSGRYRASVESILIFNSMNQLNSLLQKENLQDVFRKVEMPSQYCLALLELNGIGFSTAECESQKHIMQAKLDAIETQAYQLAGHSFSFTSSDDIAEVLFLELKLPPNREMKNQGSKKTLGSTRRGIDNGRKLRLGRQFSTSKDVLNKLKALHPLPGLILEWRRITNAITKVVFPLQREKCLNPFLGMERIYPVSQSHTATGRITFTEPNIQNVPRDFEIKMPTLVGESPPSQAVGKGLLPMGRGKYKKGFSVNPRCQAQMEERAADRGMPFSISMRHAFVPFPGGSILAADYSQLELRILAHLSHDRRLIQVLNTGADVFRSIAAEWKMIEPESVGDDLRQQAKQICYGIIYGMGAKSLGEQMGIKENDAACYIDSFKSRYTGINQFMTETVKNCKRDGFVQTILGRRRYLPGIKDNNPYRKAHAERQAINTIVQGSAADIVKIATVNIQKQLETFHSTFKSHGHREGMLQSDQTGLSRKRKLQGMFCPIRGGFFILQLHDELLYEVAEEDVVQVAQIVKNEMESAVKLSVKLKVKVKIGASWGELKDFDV

Series 1
Target: inorganic phosphate, free oxyanion
Method: microfluidic competitive inhibition
Matrix: in vitro, cell-free expressed
Tested at: not given
Setting: derived from inhibition constants, unchanged parent 615000 nM
Reading: lower = stronger binding
Starting sequence: PafA, mature enzyme, eGFP fusion (Elizabethkingia meningoseptica, UniProt Q9KJX5); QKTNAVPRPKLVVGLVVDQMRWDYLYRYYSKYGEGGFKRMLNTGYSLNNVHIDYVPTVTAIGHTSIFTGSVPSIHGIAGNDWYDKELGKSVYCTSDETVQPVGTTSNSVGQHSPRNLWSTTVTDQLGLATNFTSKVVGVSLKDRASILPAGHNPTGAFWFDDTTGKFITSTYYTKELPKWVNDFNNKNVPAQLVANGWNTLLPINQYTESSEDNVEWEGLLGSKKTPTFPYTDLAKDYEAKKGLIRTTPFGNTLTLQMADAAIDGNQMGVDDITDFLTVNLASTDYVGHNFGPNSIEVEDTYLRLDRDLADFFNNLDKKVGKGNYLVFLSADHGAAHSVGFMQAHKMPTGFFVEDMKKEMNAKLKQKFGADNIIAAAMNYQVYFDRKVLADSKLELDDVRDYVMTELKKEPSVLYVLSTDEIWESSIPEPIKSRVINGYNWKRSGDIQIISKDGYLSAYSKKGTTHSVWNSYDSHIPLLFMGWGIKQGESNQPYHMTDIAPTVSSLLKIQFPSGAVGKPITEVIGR
Substitution | phosphate dissociation constant [µM]
I61V | 413
K432V | 504
Y472V | 600
Y92V | 4560
S426G | 457
P430G | 644
H112V | 847
K187V | 635

Series 2
Target: UDP-N-acetylglucosamine--peptide N-acetylglucosaminyltransferase 110 kDa subunit (OGT, Homo sapiens, UniProt O15294)
Sequence of UniProt O15294 (whole entry, looked up): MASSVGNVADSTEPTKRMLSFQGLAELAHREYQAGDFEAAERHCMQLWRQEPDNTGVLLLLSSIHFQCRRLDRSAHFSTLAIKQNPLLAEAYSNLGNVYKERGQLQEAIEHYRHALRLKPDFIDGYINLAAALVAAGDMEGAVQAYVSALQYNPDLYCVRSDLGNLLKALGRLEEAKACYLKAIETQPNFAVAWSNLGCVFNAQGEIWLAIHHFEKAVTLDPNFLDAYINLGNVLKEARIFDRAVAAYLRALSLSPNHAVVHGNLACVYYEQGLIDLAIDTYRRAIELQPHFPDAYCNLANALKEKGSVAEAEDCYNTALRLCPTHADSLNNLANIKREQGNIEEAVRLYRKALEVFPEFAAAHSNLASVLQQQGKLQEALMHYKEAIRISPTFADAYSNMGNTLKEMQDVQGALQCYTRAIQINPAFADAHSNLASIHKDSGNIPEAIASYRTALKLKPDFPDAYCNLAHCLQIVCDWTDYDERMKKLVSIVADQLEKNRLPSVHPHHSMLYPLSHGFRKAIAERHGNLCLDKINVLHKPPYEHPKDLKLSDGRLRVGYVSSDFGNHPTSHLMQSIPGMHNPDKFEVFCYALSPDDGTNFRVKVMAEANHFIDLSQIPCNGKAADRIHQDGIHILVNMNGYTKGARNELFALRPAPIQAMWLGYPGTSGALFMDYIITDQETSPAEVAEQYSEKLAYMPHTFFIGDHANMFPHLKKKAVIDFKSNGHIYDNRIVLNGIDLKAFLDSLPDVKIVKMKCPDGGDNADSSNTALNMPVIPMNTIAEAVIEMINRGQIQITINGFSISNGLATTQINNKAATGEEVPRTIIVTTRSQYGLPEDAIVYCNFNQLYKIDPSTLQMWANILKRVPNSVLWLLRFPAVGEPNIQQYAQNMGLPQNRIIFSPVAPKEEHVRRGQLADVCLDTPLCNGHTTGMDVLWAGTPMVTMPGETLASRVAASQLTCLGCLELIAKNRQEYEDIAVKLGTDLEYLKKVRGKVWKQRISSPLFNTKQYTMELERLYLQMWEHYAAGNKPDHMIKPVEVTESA
Read-out: phage display binding
Method: phage display panning NGS
Molecule type: peptide
Relative to: OGT-panned over input library
Sequence | log2 fold enrichment
AFVPPWAPMYQIVMG | 3.08
DWHTDHWQSDHVHVH | 2.23
HTRWHSNRTHEQHHV | 3.28
GDQSYRPIYPIQYYK | 3.75
HIDKHFKHEQYQHDH | 3.15
YPPVYVIQIPMAQQH | 2.58
NFLPQYQITAGAYET | 3.71
VANMHHHVDHTAHGS | 3.38

Further values, each from its own experiment
SMILES | tested on | test | test system | setting | how to read | endpoint | result
CNC(=O)c1ccc(-c2cnn3ccc(C(=O)N(C)c4ccc(Cl)c(C(=O)OC)c4)cc23)cc1 | Cryptosporidium parvum | time-kill assay, luminescence | nanoluciferase-expressing | 0.081 µM, 0 h | relative to: DMSO | remaining parasite growth | 90.1% and 91.2% and 99.4% and 91.4% and 103% and 90.3% and 98% and 97.4%
N[C@H]1C[C@@H]1c1ccccc1 | DNA polymerase theta, ATPase domain (POLQ, Homo sapiens, UniProt O75417) | inhibitor | – | 77 µM | – | remaining activity | 79.1%
C=CC(=O)N1CCC([C@@H]2CCNc3c(C(N)=O)c(-c4ccc(Oc5ccccc5)cc4)nn32)CC1 | Dual specificity tyrosine-phosphorylation-regulated kinase 1B (DYRK1B, Homo sapiens, UniProt Q9Y463) | cell-free assay | – | 1 µM | – | inhibition | 4%

Excerpt of the above (further values, each from its own experiment):
SMILES | tested on | test | test system | setting | how to read | endpoint | result
N[C@H]1C[C@@H]1c1ccccc1 | DNA polymerase theta, ATPase domain (POLQ, Homo sapiens, UniProt O75417) | inhibitor | – | 77 µM | – | remaining activity | 79.1%
C=CC(=O)N1CCC([C@@H]2CCNc3c(C(N)=O)c(-c4ccc(Oc5ccccc5)cc4)nn32)CC1 | Dual specificity tyrosine-phosphorylation-regulated kinase 1B (DYRK1B, Homo sapiens, UniProt Q9Y463) | cell-free assay | – | 1 µM | – | inhibition | 4%
